Published values collected from several papers.
Numbered parts are unrelated; each lists some results of a single study.

Series 1 — technique: protein-binding microarray; molecule type: double-stranded DNA, one strand shown; sample: in vitro; concentration: 2540 nM top; setting: 60-bp whole probe; added: salmon DNA 0.4 mg/ml; reference: random background probes; direction: higher = stronger binding; all sequences stand within: GCCTAGCAC … GTCTTGATTCGCTTGACGCTGCTG
Target: Interferon regulatory factor 3, full length, phosphomimetic (IRF3, Homo sapiens, UniProt Q14653, residues 1-427, S386D/S396D/S398D/S402D/T404D/S405D)
Sequence of UniProt Q14653 (whole entry, unmodified, looked up): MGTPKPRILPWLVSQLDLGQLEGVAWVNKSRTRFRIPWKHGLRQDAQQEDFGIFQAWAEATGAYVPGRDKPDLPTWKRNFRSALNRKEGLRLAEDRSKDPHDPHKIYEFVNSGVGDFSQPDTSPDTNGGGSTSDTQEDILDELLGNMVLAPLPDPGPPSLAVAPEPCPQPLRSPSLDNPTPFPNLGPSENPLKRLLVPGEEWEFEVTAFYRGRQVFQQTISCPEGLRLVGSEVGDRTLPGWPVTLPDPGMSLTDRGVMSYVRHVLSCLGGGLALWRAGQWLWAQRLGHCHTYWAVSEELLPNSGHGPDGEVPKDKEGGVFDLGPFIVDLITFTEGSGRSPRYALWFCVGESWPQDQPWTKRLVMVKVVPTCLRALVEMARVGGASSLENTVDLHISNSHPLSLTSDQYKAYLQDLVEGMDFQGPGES
Oligonucleotide	fitted relative affinity [z-score]
GACGATTTCAGTTCCGGGACGTGCTAG	3.28
GACGGTTTCGACACTGGAGACGTGCTA	3.38
TCAGGTATCGGTATCGGTTAGTGCTAG	5.41
GATGGTATCGGTTTCGGGACGTGCTAG	6.99
TAAGATATCAGTATCGATTAGTGCTAG	1.84
TCAACTCTTCTTTTGCTACTGTGCTAG	0.739
TTAGAAATCAGTTTCGATTAGTGCTAG	4.93
GACGATATCAGATTGGAGACGTGCTAG	0.839
CACGTTGCTCAAGGGCTTGAGTGCTAG	-0.209
GATGATTTCGGGACTGGAGACGTGCTA	1.28
TTAGATATCAGTCTCGCTTAGTGCTAG	1.2
TTACGTATCCTTATCCTTTAGTGCTAG	4.64
TTAGGTATAGACACTGGGTTAGTGCTA	-0.857
GCCTTTTATTTGAAAGAAATGTGCTAG	2.03
TTGTGTCTGGGCATTTTTTTTGTGCTA	-0.904
GACGGTCTCCTATTGCTGACGTGCTAG	1.69
TTAGGACTGCTACGGCTTTAGTGCTAG	-0.85
TTAGGACTGGTCACTGGGTTAGTGCTA	-0.823
TTAGGTCTCTGACTGGGTTAGTGCTAG	-0.666
TTAGGACGGGGACTGGGTTAGTGCTAG	-0.868
TTAGGTCTCCCACTGCTTTAGTGCTAG	0.392
GACGGTATCGGTTTCGCGACGTGCTAG	6.2
GACGGTTTCAGTATCGGGACGTGCTAG	5.25

Series 2 — technique: protein binding microarray; molecule type: double-stranded DNA, one strand shown; sample: in vitro; concentration: not given; reference: not given; direction: higher = stronger binding
Target: Histone acetyltransferase KAT6A, winged helix 1, GST fusion (KAT6A, Homo sapiens, UniProt Q92794, residues 1-85)
Setting: 8-mer, flanks averaged, mean of 2 arrays, mostly near background
Construct (chain): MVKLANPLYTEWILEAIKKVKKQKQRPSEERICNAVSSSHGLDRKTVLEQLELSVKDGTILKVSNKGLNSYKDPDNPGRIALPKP
Oligonucleotide	E-score
GATGCCCA	-0.145
AGAGGTGC	0.0274
CGACAAGA	-0.117
TTTCGAAA	-0.166
AGGGCTAG	-0.135
CGGCCGAG	0.42
ATTCGGGA	-0.0572
CAGCCTTA	-0.211
ATTCAGTC	0.0142
CGTTTAAA	-0.0382
GTGGACAC	-0.0216
ACGTTTGC	-0.00379
ATTGCAAT	-0.0109
CGCATCCC	0.252
AGCCGCTA	0.286
CACATATC	-0.0473
CAGGTAGA	-0.0971
TAACCTCA	-0.166

Series 3 — technique: RNA Bind-n-Seq; molecule type: RNA; sample: in vitro; concentration: 1 µM; setting: whole 134-nt RNA, ends assumed; added: 150 mM KCl; reference: input library; direction: higher = stronger binding
Target: Ras GTPase-activating protein-binding protein 1, RRM domain (G3BP1, Homo sapiens, UniProt Q13283)
Sequence of UniProt Q13283 (whole entry, looked up): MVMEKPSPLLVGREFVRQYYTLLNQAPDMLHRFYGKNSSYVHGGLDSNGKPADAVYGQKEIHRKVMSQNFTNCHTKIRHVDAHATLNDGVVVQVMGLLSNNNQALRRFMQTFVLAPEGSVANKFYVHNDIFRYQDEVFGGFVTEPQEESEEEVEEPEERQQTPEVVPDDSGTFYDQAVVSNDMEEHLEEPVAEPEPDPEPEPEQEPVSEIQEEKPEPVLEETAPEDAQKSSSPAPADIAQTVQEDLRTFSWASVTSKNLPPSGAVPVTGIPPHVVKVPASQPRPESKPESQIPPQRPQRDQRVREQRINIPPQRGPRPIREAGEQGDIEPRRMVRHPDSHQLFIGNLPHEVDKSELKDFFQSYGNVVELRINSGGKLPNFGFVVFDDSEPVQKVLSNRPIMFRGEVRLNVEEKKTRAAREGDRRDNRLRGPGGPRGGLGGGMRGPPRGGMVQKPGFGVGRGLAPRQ
Oligonucleotide	log2 enrichment
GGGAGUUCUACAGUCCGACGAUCACCAUGCAGGUGGGCAUCUUUGGGAAGUGGCGCAAGGGGGGGAUAGGGAGGGGGGUAACACUUUGGGAACAGGUGGUCCCAGGUCGUUUCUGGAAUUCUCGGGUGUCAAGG	-0.504
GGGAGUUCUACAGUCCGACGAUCUCCUCAAGUCCUGUGCUACACAUCGUAUGUACCGAAUCGGGGUGGGUGGUGGAAAGUAUUAUGUUACGCCGUUCGGAUCUGCACUUCCAGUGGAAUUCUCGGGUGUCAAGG	-0.0777
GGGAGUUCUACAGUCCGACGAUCGUCCUGUGCUACACAUCGUAUGUACCGAAUCGGGUUUUUUUGGGAAAGGGAAAAAGGGAAAGUAUUAUGUUACGCCGUUCGGAUCUGCACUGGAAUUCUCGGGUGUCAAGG	-0.091
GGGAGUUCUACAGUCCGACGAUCCCUGUGCUACACAUCGUAUGUACCGAAUCGGGCCCCCCGGGGCCCCCCGGGCCCCCCGGGAAAGUAUUAUGUUACGCCGUUCGGAUCUGCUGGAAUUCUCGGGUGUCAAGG	-0.652
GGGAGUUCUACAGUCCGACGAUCUGGCCCUGGUGGCAUGCGGGGAGGAAGAGGUGGCCUCAUGGAUCGUGGUGGUCCCGGUGGAGUGUUCAGAGGUGGCCGUGGUGGAGACAGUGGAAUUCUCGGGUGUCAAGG	0.718
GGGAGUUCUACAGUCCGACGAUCCAAGUCCUGUGCUACACAUCGUAUGUACCGAAUCGGGGAAAGGGAAAGGGGAAAGGAAAGUAUUAUGUUACGCCGUUCGGAUCUGCACUUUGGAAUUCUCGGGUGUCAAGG	-0.197
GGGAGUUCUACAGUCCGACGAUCCUCAAGUCCUGUGCUACACAUCGUAUGUACCGAAUCGGUUUUUGGAAAGGUGGAAAGUAUUAUGUUACGCCGUUCGGAUCUGCACUUCCAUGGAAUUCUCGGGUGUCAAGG	-0.212
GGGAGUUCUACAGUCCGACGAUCUGGCUGGCUGUGGCCUCACAGCUGAGGACUGCAAGGACCUUGCCUUUGGGCUGAGAGCCAACCAGACCCUGACCGAGCUGGACCUGAGCUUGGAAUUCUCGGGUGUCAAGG	-0.676
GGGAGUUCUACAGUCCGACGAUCAAGUCCUGUGCUACACAUCGUAUGUACCGAAUCGGGGUUUGGGGUUUGGGGUGGGGAAAGUAUUAUGUUACGCCGUUCGGAUCUGCACUUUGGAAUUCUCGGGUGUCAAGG	0.961
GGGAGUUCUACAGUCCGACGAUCCUCAAGUCCUGUGCUACACAUCGUAUGUACCGAAUCGGGCCGGCCGGGCCGGGGAAAGUAUUAUGUUACGCCGUUCGGAUCUGCACUUCCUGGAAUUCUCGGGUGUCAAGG	-0.277
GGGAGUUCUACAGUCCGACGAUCACCAUGCAGGUGGGCAUCUUUGGGAAGUGGGGCAAGGGGGGGAUAGGGAGGGGGGUAACACUUUGGGAACAGGUGGCCCCAGGUCGUUUCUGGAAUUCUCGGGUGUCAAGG	0.342
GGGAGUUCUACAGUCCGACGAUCGCAGGAAGUAAAAACAAAUGGAAAUGCUUCGGAUAGUGGCAGGGGUGGGGGUUGCUAAGGAAAGGGUGGGAUGGGAGUGGGUCAAGAGUUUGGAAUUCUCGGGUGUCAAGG	0.722
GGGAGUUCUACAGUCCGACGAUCUCCUGUGCUACACAUCGUAUGUACCGAAUCGGCCCCCCGGGCCCCCCGGCCCCCCGGGGAAAGUAUUAUGUUACGCCGUUCGGAUCUGCAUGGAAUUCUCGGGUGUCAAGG	-0.394
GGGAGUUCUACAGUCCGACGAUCCCUGUGCUACACAUCGUAUGUACCGAAUCGGGGCCCCCCGGGGCCCCCCGGGCCCCCCGGAAAGUAUUAUGUUACGCCGUUCGGAUCUGCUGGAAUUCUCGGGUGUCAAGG	-0.651

Series 4 — technique: RNA Bind-n-Seq; molecule type: RNA; sample: in vitro; concentration: not given; reference: input RNA pool; direction: higher = stronger binding
Target: RING finger protein unkempt homolog, zinc fingers 1-6, GST-SBP tag (UNK, Homo sapiens, UniProt Q9C0B0, residues 30-357)
Sequence of UniProt Q9C0B0 (30-357, looked up): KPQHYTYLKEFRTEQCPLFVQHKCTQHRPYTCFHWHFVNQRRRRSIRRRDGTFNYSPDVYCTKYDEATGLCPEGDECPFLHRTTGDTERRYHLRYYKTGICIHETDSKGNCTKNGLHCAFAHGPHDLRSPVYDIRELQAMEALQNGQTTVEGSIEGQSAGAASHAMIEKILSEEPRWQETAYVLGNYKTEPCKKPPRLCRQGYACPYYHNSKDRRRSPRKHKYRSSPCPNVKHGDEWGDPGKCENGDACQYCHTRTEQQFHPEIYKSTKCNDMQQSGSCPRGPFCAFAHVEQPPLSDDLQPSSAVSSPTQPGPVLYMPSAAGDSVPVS
Setting: RNA with constant flanks, human and mouse sites, ends assumed
Oligonucleotide	bound/input enrichment [ratio]
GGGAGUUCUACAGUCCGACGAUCUCUCCUAUGUUACCAAUGUGUAUCGUCUCCUUCUCCCUAAAGUGUACUUAAUCUUUGCUUUCUUUGCACAAUGUCUUUGGUUGCAAGUCAUAAGCCUGAGGCAAAUAAAAUUCCAGUAAUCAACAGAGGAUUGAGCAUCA	0.18
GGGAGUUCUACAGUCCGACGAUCGCCCCAGAGCAGAGGAAAAUCCAAAGUGGAGAGAGGGGAAGAAAGAGACCAGUGAGUCAUCCGUCCAGAAGGCGGGGAGAGCAGCAGCGGCCCAAGCAGGAGCUGCAGCGAGCCGGGUACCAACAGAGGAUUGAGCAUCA	0.311
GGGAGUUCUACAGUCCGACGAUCACGAGAUAUUUUUGCUCAGAGAAGGGAUGUUUGAGCGGAUUCCUGAUAUAGUUGUAUGGCCAACAUGUCAUGAUGAUGUAGUUAAGAUUGUGAAUCUAGCUUGCAAAUAUAACCUUUGUACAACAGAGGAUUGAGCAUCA	0.344
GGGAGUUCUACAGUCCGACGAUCUCAUGCCUGGUGGCCGGGCCGCACCAAAGGCACAUCGCGCUGUCGCCCCGCUACCUUAACAGGAAACGCACCGGCAUUCGAGAACAGCUUGAUGCGGAGCUCCUUCGCUAUUCUGAGAGCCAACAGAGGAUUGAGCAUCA	0.115
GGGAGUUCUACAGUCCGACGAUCGAAAAUUUGCAUGCAGCAGCUUACCGGAAUGCCUUGGCUAAUCCCUUGUAUUGUCCUGACUAUAGGAUUGGAAAAGUGACAUCAGAGGAGUUACAUUACUUCGUUCAGAACCAUUUCACACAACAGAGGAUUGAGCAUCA	0.306
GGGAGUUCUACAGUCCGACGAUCGGGAAUCCUGCUUGUUCGGCCCAGUUGCAGCAUGUCUCGCCACCCAUUUUUCCAGCUCAUUUAGCAAGUGUGUCAACUCCAUUGUUGUCCUCAAUGGAAAGUGUCAUAAAUCCAAAUAUACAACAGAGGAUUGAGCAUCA	0.522
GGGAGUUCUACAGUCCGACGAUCCAGCUAAUCCAAAGGGAGUUUCAGACCAGUGCAAUCAGCAGAGACAUUGAUACUGCUGCCAAAUUUAUUGGUGCAGGUGCUGCAACAGUAGGAGUGGCUGGUUCUGGUGCUGGUAUUGGACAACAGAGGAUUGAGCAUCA	0.136
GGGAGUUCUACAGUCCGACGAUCGUUAAAAGGAAGGUCAUCAUAUUCCUCAAAAAGUGCCUUCUCUGUAAAGUGGGUGAAGACCUCUGUCGUGGAUCUGUGCCUGCCUUAAUGCCGCCAGACCAUCAUGUAGCGGUGGACAUGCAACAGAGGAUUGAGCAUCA	0.393
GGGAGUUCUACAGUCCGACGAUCCACAACAGCAAAAUUAAAGUUGGGGCUGGAGAGAUGGCUCAGCGGUUAAGAGCUCUGACUGUUCUUUCAGUGGUCAUGAGUUCAAAUCCCAGCAACCACAUGGUGGCUCACAAUUAUCUGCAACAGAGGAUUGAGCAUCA	0.113
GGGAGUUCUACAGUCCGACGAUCCCCUUGCCCAGAAGCAGCUGAACAAUUCCUAACCCAUUUCAUCUCGGUUCUGUAUGGGUUUUUCCCGUGCAUGGAAGGGAGGCAGCUCAGGGACCACCAUUGUGGAGCCUUUGAGACCUCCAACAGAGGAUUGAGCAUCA	0.263
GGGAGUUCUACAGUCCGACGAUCUGGCGGUGGCCGCGGGGGCUGCGGUGGCGGCGGGCACAGCCCCUCUCAAACUGCCCCGUGUCUCCUACUACGGGGUGCCCAGCCUGGCCACCCUCAUCCCCGGCAUCCAGCAGAUGCCCUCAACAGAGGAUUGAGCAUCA	0.124

Series 5 — technique: universal PBM; molecule type: double-stranded DNA, one strand shown; sample: in vitro; concentration: 600 nM; direction: higher = stronger binding
Target: Sal-like protein 4, full length isoform A (SALL4, Homo sapiens, UniProt Q9UJQ4, residues 1-1053)
Sequence of UniProt Q9UJQ4 (whole entry, looked up): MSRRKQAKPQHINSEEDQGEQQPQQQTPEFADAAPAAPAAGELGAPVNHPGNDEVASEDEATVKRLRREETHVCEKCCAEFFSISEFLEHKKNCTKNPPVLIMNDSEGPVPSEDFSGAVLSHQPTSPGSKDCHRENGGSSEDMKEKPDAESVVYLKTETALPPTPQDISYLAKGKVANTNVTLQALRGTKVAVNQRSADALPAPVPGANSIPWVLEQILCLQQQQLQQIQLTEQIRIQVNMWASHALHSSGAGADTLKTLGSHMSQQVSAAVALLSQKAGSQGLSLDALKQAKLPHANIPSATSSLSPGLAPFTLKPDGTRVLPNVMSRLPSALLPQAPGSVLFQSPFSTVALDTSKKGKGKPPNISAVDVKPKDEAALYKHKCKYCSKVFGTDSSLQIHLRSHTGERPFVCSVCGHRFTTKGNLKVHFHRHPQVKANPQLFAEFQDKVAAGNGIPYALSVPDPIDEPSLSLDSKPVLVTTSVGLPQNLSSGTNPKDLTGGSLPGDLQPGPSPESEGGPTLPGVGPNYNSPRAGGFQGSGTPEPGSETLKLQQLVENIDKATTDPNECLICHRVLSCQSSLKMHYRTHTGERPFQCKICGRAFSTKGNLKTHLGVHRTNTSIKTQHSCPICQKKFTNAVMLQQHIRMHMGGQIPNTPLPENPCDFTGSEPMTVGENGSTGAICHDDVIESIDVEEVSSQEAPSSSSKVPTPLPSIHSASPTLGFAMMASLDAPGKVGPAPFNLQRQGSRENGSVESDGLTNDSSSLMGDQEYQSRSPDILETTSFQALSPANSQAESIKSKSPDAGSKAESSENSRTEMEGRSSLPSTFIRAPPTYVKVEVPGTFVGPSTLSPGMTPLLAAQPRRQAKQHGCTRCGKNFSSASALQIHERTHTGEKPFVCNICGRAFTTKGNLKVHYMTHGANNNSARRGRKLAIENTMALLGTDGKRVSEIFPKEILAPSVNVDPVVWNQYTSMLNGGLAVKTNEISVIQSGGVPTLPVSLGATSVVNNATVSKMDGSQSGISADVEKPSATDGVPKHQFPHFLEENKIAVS
Setting: 8-mer, flanks averaged, mean of replicates
Oligonucleotide	E-score
CACCCAAA	-0.0598
GGGGAAGA	-0.0918
AGGCTGGG	-0.308
CGGACCGC	-0.344
CGGTAACG	-0.14
CTCTGTTA	0.0373
GGATGGTA	0.134
CCCGATTC	-0.0927
CGAACTCA	-0.15
GCGACGGA	-0.284
GACCACTC	-0.251
GCAAATAC	0.228
ACTGCTAG	-0.113
TCAGGCCA	-0.0922
AAACGAAA	0.16
CGTGCTTA	-0.0207
ACGATATG	0.25
TGCAAGAA	0.0998
ATTCTCAC	0.194
GGTTTCAA	-0.00934
CAATGTCC	-0.189
AATCTTGT	0.165
CGCGTCGC	-0.27

Repeated from above (series 1):
Oligonucleotide	fitted relative affinity [z-score]
TTAGGTATAGACACTGGGTTAGTGCTA	-0.857
GACGATATCAGATTGGAGACGTGCTAG	0.839
GCCTTTTATTTGAAAGAAATGTGCTAG	2.03
TTAGGTCTCTGACTGGGTTAGTGCTAG	-0.666
GATGATTTCGGGACTGGAGACGTGCTA	1.28
TTAGATATCAGTCTCGCTTAGTGCTAG	1.2
GATGGTATCGGTTTCGGGACGTGCTAG	6.99
TTAGAAATCAGTTTCGATTAGTGCTAG	4.93
GACGGTATCGGTTTCGCGACGTGCTAG	6.2
TTACGTATCCTTATCCTTTAGTGCTAG	4.64
